{"data": "Published values collected from several papers", "rep main protease": "Replicase polyprotein 1ab, main protease (rep, Severe acute respiratory syndrome coronavirus 2, UniProt P0DTD1)", "Epithelial sodium channel subunit beta": "Epithelial sodium channel subunit beta (Homo sapiens, UniProt P51168)", "gag-pol reverse transcriptase": "Gag-Pol polyprotein, reverse transcriptase (gag-pol, Human immunodeficiency virus type 1 group M subtype B, UniProt P04585)", "HLA class I histocompatibility antigen, A alpha chain": "HLA class I histocompatibility antigen, A alpha chain (Homo sapiens, UniProt P04439)", "gag-pol K653N reverse transcriptase": "Gag-Pol polyprotein, reverse transcriptase (gag-pol, Human immunodeficiency virus type 1 group M subtype B, UniProt P04585, K653N)", "uncharacterized protein": "uncharacterized protein (Anopheles coluzzii, UniProt A0A6E8VQK1)", "note": "Protocols differ between the studies behind these lines. ± marks the error that the study gave."}
{"Molecule": "YTMSLGAENSVAY", "test": "AIM", "system": "peptide, CD8+ T cells from PBMC, human donors", "setting": "dose not given", "quantity": "response magnitude per positive donor", "value": 106}
{"Molecule": "Theaflavin 3,3'-digallate", "tested on": "rep main protease", "test": "enzyme activity, mKate2 fluorescence reporter", "system": "SARS-CoV-2", "setting": "20 µM", "quantity": "inhibition", "value": "-1.4%"}
{"Molecule": "Cc1c(N2CC[C@@H](CN)C2)c(F)cc2c(=O)n(CCN)c(=O)n(C3CC3)c12", "tested on": "DNA gyrase (gyrA/gyrB, Escherichia coli, UniProt P0AES4+P0AES6)", "test": "DNA cleavage, poison", "quantity": "concentration giving linear DNA", "value": "25 to 50 µM"}
{"Molecule": "CC(C)C[C@H](NC(=O)[C@@H]1CCCN1C(=O)[C@H](CCCNC(=N)N)NC(=O)[C@H](CC(C)C)NC(=O)[C@H](CCCNC(=N)N)NC(=O)[C@H](CC(=O)O)NC(=O)[C@H](Cc1ccc(O)cc1)NC(=O)[C@H](CC(=O)O)NC(=O)[C@H](CCC(=O)O)NC(=O)[C@H](CCC(N)=O)NC(=O)CN)C(=O)O", "tested on": "Epithelial sodium channel subunit beta", "test": "binding, bio-layer interferometry", "quantity": "koff", "value": "0.0228 s⁻¹"}
{"Molecule": "Nc1nc2c(ncn2[C@H]2C[C@H](O)[C@@H](COP(=O)(O)OP(=O)(O)OP(=O)(O)O)O2)c(=O)[nH]1", "tested on": "gag-pol reverse transcriptase", "test": "substrate", "setting": "misinsertion opposite template T", "quantity": "Km", "value": "12.7 ± 7.8 µM"}
{"Molecule": "RASILSGGK", "tested on": "HLA class I histocompatibility antigen, A alpha chain", "test": "peptide-MHC complex stability, iTopia off-rate", "system": "peptide", "quantity": "dissociation half-life", "value": "30 min"}
{"Molecule": "Nc1ncnc2c1ncn2[C@H]1C[C@H](O)[C@@H](COP(=O)(O)OP(=O)(O)OP(=O)(O)O)O1", "tested on": "gag-pol K653N reverse transcriptase", "test": "substrate", "setting": "K66N mutant, added: G:A mismatched primer template", "quantity": "kcat", "value": "0.0133 ± 0.00383 s⁻¹"}
{"Molecule": "COc1cc2c3cc1Oc1cc(ccc1O)C[C@@H]1c4c(cc(OC)c(O)c4Oc4ccc(cc4)C[C@@H]3N(C)CC2)CC[N+]1(C)C", "tested on": "Chrnd/Chrna1/Chrne (Mus musculus, UniProt P02716+P04756+P20782)", "system": "mouse diaphragm", "setting": "0.04 µM, AChE inhibited", "scale": "reference: control", "quantity": "response amplitude", "value": "88%"}
{"Molecule": "KNCRAPRKK", "tested on": "HLA class I histocompatibility antigen, A alpha chain", "test": "peptide binding, iTopia affinity", "system": "peptide", "quantity": "ED50", "value": "84.3 µM"}
{"Molecule": "Nc1ccn([C@H]2C[C@H](O)[C@@H](COP(=O)(O)OP(=O)(O)OP(=O)(O)O)O2)c(=O)n1", "tested on": "Gag-Pol polyprotein, reverse transcriptase (gag-pol, Human immunodeficiency virus type 1 group M subtype B, UniProt P04585, K653T)", "test": "nucleotide misinsertion, steady-state kinetics", "setting": "K66T mutant RT, added: opposite template T", "quantity": "Km", "value": "1620 ± 656 µM"}
{"Molecule": "COP(=O)(OC)Oc1ccc([N+](=O)[O-])cc1", "tested on": "Phosphotriesterase-like lactonase (Geobacillus stearothermophilus, UniProt D0VX06)", "quantity": "Km", "value": "270 ± 31 µM"}
{"Molecule": "Cc1cn([C@H]2C=C[C@@H](COP(=O)(O)OP(=O)(O)OP(=O)(O)O)O2)c(=O)[nH]c1=O", "tested on": "gag-pol K653N reverse transcriptase", "test": "reverse transcriptase activity, inhibitor", "system": "HIV-1", "scale": "reference: K66N mutant over wild type", "quantity": "fold resistance", "value": "~2 fold"}
{"Molecule": "CCOC(=O)CC(SP(=S)(OC)OC)C(=O)OCC (centres unmarked)", "tested on": "uncharacterized protein", "test": "enzyme activity, inhibitor", "system": "Sf9 cell homogenate", "setting": "0.0004546 µM, 0.1667 h, added: α-naphthyl acetate substrate", "scale": "reference: no inhibitor", "quantity": "remaining activity", "value": "101%"}
{"Molecule": "NC(=O)C[C@H](NC(=O)Cc1ccc(O)cc1O)C(=O)NCCCCCNCCCNCCCNC(=O)[C@@H](N)CCCN=C(N)N", "tested on": "Glutamate NMDA receptor; Grin1/Grin2a (Grin1/Grin2a, Rattus norvegicus, UniProt P35439+Q00959)", "test": "ion current, open-channel blocker, whole-cell patch clamp", "system": "HEK293 cells", "quantity": "deactivation time constant", "value": "no effect"}
{"Molecule": "N[C@@H](C[C@]1(C(=O)O)C[C@H]2OC[C@@H](O)[C@@H](O)[C@H]2O1)C(=O)O", "tested on": "Grik2 (Rattus norvegicus, UniProt P42260, Y443F)", "test": "[3H]kainate displacement", "scale": "reference: wild-type GluK2", "quantity": "affinity decrease", "value": "100 fold"}
{"Molecule": "RNCRAPRKK", "tested on": "HLA class I histocompatibility antigen, A alpha chain", "test": "peptide-MHC complex stability, iTopia off-rate", "system": "peptide", "quantity": "dissociation half-life", "value": "30 min"}
{"Molecule": "C[C@@H](O)[C@H](NC(=O)[C@H](Cc1ccccc1)NC(=O)[C@H](Cc1ccccc1)NC(=O)[C@H](CC(=O)O)NC(=O)[C@H](CC(=O)O)NC(=O)[C@H](Cc1c[nH]c2ccccc12)NC(=O)[C@H](CO)NC(=O)[C@@H](N)CCCCN)C(=O)N[C@@H](CCCNC(=N)N)C(=O)O", "tested on": "Epithelial sodium channel subunit beta", "test": "binding, bio-layer interferometry", "quantity": "koff", "value": "0.00441 s⁻¹"}
{"Molecule": "AKNCRAPRK", "tested on": "HLA class I histocompatibility antigen, A alpha chain", "test": "peptide binding, iTopia affinity", "system": "peptide", "quantity": "ED50", "value": "20.3 µM"}
{"Molecule": "CCN(CC)c1nc(C)cc(OP(=S)(OC)OC)n1", "tested on": "uncharacterized protein", "test": "enzyme activity, inhibitor", "system": "Sf9 cell homogenate", "setting": "0.4587 µM, 0.1667 h, added: α-naphthyl acetate substrate", "scale": "reference: no inhibitor", "quantity": "remaining activity", "value": "98.4%"}
{"Molecule": "bavachinin", "tested on": "Spike glycoprotein (Severe acute respiratory syndrome coronavirus 2, UniProt P0DTC2)", "test": "binding", "quantity": "Kd", "value": "11.8 µM"}
{"Molecule": "Cc1cn([C@H]2C[C@H](N=[N+]=[N-])[C@@H](COP(=O)(O)OP(=O)(O)OP(=O)(O)O)O2)c(=O)[nH]c1=O", "tested on": "Gag-Pol polyprotein, reverse transcriptase (gag-pol, Human immunodeficiency virus type 1 group M subtype B, UniProt P04585, K653A)", "test": "reverse transcriptase activity, inhibitor", "system": "HIV-1", "scale": "reference: K66A mutant over wild type", "quantity": "fold resistance", "value": "3 fold"}
{"Molecule": "p2o (Trametes ochracea, UniProt Q7ZA32)", "tested on": "CN(C)c1ccc2nc3ccc(N(C)C)c([N+](=O)[O-])c3[s+]c2c1", "test": "steady-state kinetics", "setting": "pH 6.5, 22 °C, apparent", "quantity": "kcat/Km", "value": "13000 M⁻¹ s⁻¹"}
{"Molecule": "Cc1cn([C@H]2C[C@H](O)[C@@H](COP(=O)(O)OP(=O)(O)OP(=O)(O)O)O2)c(=O)[nH]c1=O", "tested on": "gag-pol reverse transcriptase", "test": "substrate", "setting": "misinsertion opposite template T", "quantity": "Km", "value": "71.9 ± 63.3 µM"}
{"Molecule": "FolB (Mycobacterium tuberculosis, UniProt P9WNC5)", "tested on": "Nc1nc2c(c(=O)[nH]1)N=C([C@H](O)[C@@H](O)CO)CN2", "test": "steady-state kinetics", "setting": "pH 7, 25 °C", "quantity": "kcat/Km", "value": "38000 ± 6900 M⁻¹ s⁻¹"}
{"Molecule": "bivalirudin", "tested on": "rep main protease", "test": "enzyme activity, Gaussia luciferase reporter", "system": "SARS-CoV-2", "setting": "20 µM", "quantity": "inhibition", "value": "2.27%"}
{"Molecule": "PaFS D92A (Diaporthe amygdali)", "tested on": "CC(C)=CCC/C(C)=C/COP(=O)(O)OP(=O)(O)O", "test": "steady-state kinetics", "quantity": "kcat", "value": "0.26 ± 0.03 s⁻¹"}
{"Molecule": "RASVLSGGK", "tested on": "HLA class I histocompatibility antigen, A alpha chain", "test": "peptide-MHC complex stability, iTopia off-rate", "system": "peptide", "quantity": "dissociation half-life", "value": "62.4 min"}
{"Molecule": "TSNQVAVLY", "test": "AIM", "system": "peptide, CD8+ T cells from PBMC, human donors", "setting": "dose not given", "quantity": "response magnitude per positive donor", "value": 109}
{"Molecule": "CC[C@H](C)[C@H](NC(=O)[C@H]1CCC[C@@H]1NC(=O)[C@H](CC(=O)O)NC(=O)[C@H](CC(C)C)NC(=O)[C@H](CCCCN)NC(=O)[C@H]1CCC[C@@H]1NC(=O)[C@H](CC(N)=O)NC(=O)[C@H](CO)NC(=O)[C@H]1CNC[C@@H]1NC(=O)[C@H](CCCNC(=N)N)NC(=O)[C@@H](NC(=O)[C@H](Cc1c[nH]c2ccccc12)NC(=O)C[C@H](CCC(=O)O)NC(=O)[C@H](CCCCN)NC(=O)[C@H](CO)NC(=O)C[C@H](CCC(=O)O)NC(=O)[C@H](CCC(=O)O)NC(=O)[C@H](CC(C)C)NC(=O)[C@H](CC(=O)O)NC(=O)[C@H]1CCC[C@@H]1NC(=O)[C@H](CCCCN)NC(=O)[C@@H](NC(=O)[C@H]1CNC[C@@H]1NC(=O)[C@H](CC(N)=O)NC(=O)[C@H](CC(C)C)NC(=O)[C@@H](NC(=O)[C@H]1CCC[C@@H]1NC(=O)[C@H](CO)NC(=O)[C@@H](NC(=O)[C@H](CC(=O)O)NC(=O)[C@@H](NC(=O)[C@@H]1CCCN1C(=O)[C@H](CC(=O)O)NC(=O)[C@H](CC(C)C)NC(=O)[C@H](C)NC(=O)[C@@H](NC(C)=O)C(C)C)[C@@H](C)CC)[C@@H](C)CC)C(C)C)[C@@H](C)CC)[C@@H](C)CC)C(N)=O", "tested on": "Fusion glycoprotein F0, HRN domain (F, Human parainfluenza 3 virus, UniProt P06828)", "test": "co-assembly, HPIV3 HRN, with, variable-temperature CD", "system": "PBS", "setting": "50 µM, 1:1 mixture", "quantity": "melting temperature", "value": "67 °C"}
{"note": "Excerpt of the above:"}
{"Molecule": "AKNCRAPRK", "tested on": "HLA class I histocompatibility antigen, A alpha chain", "test": "peptide binding, iTopia affinity", "system": "peptide", "quantity": "ED50", "value": "20.3 µM"}
{"Molecule": "CCN(CC)c1nc(C)cc(OP(=S)(OC)OC)n1", "tested on": "uncharacterized protein", "test": "enzyme activity, inhibitor", "system": "Sf9 cell homogenate", "setting": "0.4587 µM, 0.1667 h, added: α-naphthyl acetate substrate", "scale": "reference: no inhibitor", "quantity": "remaining activity", "value": "98.4%"}
{"Molecule": "bavachinin", "tested on": "Spike glycoprotein (Severe acute respiratory syndrome coronavirus 2, UniProt P0DTC2)", "test": "binding", "quantity": "Kd", "value": "11.8 µM"}
{"Molecule": "Cc1cn([C@H]2C[C@H](N=[N+]=[N-])[C@@H](COP(=O)(O)OP(=O)(O)OP(=O)(O)O)O2)c(=O)[nH]c1=O", "tested on": "Gag-Pol polyprotein, reverse transcriptase (gag-pol, Human immunodeficiency virus type 1 group M subtype B, UniProt P04585, K653A)", "test": "reverse transcriptase activity, inhibitor", "system": "HIV-1", "scale": "reference: K66A mutant over wild type", "quantity": "fold resistance", "value": "3 fold"}
